Experimental data collected from several papers.
Protocols differ between the studies behind these lines. Several values in a cell are separate wells, animals, samples, runs or records. Numbers after ± are the reported error.
Method: steady-state kinetics
B1: enzyme (Papaver somniferum, UniProt Q9SQ68); chain MESNGVPMITLSSGIRMPALGMGTAETMVKGTEREKLAFLKAIEVGYRHFDTAAAYQSEECLGEAIAEALQLGLIKSRDELFITSKLWCADAHADLVLPALQNSLRNLKLDYLDLYLIHHPVSLKPGKFVNEIPKDHILPMDYKSVWAAMEECQTLGFTRAIGVCNFSCKKLQELMAAAKIPPVVNQVEMSPTLHQKNLREYCKANNIMITAHSVLGAICAPWGSNAVMDSKVLHQIAVARGKSVAQVSMRWVYQQGASLVVKSFNEGRMKENLKIFDWELTAENMEKISEIPQSRTSSADFLLSPTGPFKTEEEFWDEKD
B2: protein E27A (uncultured bacterium HF130_AEPn_1, UniProt D0E8I5); chain MSLSNSSKVSVLISLLEKSRDLDYIGAAINQLEHSLQCAYFAQRSGADNEMVLAALLHDLGHYCNDTSFEDMGGYGVWQHEKVGADYLRGLGFSERVACLIEGHVAAKRYLVSSKASYLKNLSDASRKTLEYQGGPMDEGERRLFEEREDFKDCLKIRAWDEKGKQTDLKVPGPEHYRKMMEEHLSENQN
B3: enzyme N249W (Thermobifida fusca, UniProt Q47RK4); chain MTDVYILDAVRTPFGRYGGALSGIRPDDLAAHVLRALAERSPGLDPAAVDDVFFGDANGAGEDNRNVARMAALLAGWPTSVPGVTLNRLCGSGMESVIAANRAIAVGDASLAVAGGVESMSRAPWVLPKPAQGFPTGHETLYSTTLGWRMVNPAMPEQWTVSLGESTEQVAATYGISRAEQDAFALRSHERAARAWAEGVFDAEITQIPGAELERDESIRETSAEKLAALKPAFRPDGTITAGNASPLWDGAAALLIGDAAAAERVGREPLARIVSRGVAAVDPDVFGIGPVQAAEIALRRAGIGWDDLSVVELNEAFAAQSLACLKLWPDLDPEIVNPNGGAIAIGHPLGASGARIVGTLAHELHRRGGGWGLAAICIGVGQGLAVVLHR
B4: protein N123D (Rhodopseudomonas palustris, UniProt Q6N3R9); chain MSNVRVLATDLAFPEGPVVMPDGSVVLVEIRAQQLTRVWPDGRKEVVAKVPGGPNGAALGPDGKMYICNNGGFGWFPSRGTMMPGAPAPHEYIGGSIQRVDLQSGEVETLFDKCGEHPLKGPDDLVFDKHGGLWFTDLGKRRARDMDVGAAYYIKPGMTEITEQVFGTLPLNGIGLSPDEATMYAAETPTGRLWAFDLSGPGEVKPRDVIYRGEKGKPICGLGGYQMFDSLAVEASGNVCVATLVSGCISVIAPDGTLVEQVPTGDRVTTNIAFGGPDLKTAYITLSGKGELIAMDWSRPGLPLNFLNK
B5: nitrilase Y142F (Rhodococcus rhodochrous, UniProt A4LA85); chain MVEYTNTFKVAAVQAQPVWFDAAKTVDKTVSIIAEAARNGCELVAFPEVFIPGYPYHIWVDSPLAGMAKFAVRYHENSLTMDSPHVQRLLDAARDHNIAVVVGISERDGGSLYMTQLIIDADGQLVARRRKLKPTHVERSVFGEGNGSDISVYDMPFARLGALNCWEHFQTLTKYAMYSMHEQVHVASWPGMSLYQPEVPAFGVDAQLTATRMYALEGQTFVVCTTQVVTPEAHEFFCENEEQRKLIGRGGGFARIIGPDGRDLATPLAEDEEGILYADIDLSAITLAKQAADPVGHYSRPDVLSLNFNQRRTTPVNTPLSTIHATHTFVPQFGALDGVRELNGADEQRALPSTHSDETDRATASI
B6: enzyme (Mus musculus, UniProt Q9JLT4); chain GGQQSFDLLVIGGGSGGLACAKEAAQLGKKVAVADYVEPSPRGTKWGLGGTCVNVGCIPKKLMHQAALLGGMIRDAHHYGWEVAQPVQHNWKTMAEAVQNHVKSLNWGHRVQLQDRKVKYFNIKASFVDEHTVRGVDKGGKATLLSAEHIVIATGGRPRYPTQVKGALEYGITSDDIFWLKESPGKTLVVGASYVALECAGFLTGIGLDTTVMMRSIPLRGFDQQMSSLVTEHMESHGTQFLKGCVPSHIKKLPTNQLQVTWEDHASGKEDTGTFDTVLWAIGRVPETRTLNLEKAGISTNPKNQKIIVDAQEATSVPHIYAIGDVAEGRPELTPTAIKAGKLLAQRLFGKSSTLMDYSNVPTTVFTPLEYGCVGLSEEEAVALHGQEHVEVYHAYYKPLEFTVADRDASQCYIKMVCMREPPQLVLGLHFLGPNAGEVTQGFALGIKCGASYAQVMQTVGIHPTCSEEVVKLHISKRSGLEPTVTGCUG
Chain of UniProt P27815 (whole entry, looked up): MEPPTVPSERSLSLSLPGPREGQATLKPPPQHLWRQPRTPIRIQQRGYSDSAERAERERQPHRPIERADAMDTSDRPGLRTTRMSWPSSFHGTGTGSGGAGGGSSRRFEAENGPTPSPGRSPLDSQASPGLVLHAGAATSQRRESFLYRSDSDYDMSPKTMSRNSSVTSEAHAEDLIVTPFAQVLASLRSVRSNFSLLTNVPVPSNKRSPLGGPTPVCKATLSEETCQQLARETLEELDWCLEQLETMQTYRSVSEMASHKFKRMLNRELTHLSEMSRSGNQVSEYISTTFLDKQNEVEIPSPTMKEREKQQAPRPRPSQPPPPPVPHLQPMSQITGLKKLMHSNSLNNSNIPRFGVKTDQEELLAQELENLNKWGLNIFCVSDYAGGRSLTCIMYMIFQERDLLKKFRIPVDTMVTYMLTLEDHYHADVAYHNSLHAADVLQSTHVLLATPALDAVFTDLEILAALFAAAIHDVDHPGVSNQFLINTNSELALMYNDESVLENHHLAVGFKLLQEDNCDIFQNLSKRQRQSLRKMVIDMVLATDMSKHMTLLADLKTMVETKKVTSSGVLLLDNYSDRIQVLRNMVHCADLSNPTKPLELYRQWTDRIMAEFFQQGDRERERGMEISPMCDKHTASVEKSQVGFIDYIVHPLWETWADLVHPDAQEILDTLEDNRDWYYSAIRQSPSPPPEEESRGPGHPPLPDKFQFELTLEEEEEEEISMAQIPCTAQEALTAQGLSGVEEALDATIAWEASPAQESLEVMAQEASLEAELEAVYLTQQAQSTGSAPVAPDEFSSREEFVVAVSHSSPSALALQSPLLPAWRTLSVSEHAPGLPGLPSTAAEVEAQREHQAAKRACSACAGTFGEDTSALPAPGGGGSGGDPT
Chain of UniProt F4I907 (whole entry, looked up): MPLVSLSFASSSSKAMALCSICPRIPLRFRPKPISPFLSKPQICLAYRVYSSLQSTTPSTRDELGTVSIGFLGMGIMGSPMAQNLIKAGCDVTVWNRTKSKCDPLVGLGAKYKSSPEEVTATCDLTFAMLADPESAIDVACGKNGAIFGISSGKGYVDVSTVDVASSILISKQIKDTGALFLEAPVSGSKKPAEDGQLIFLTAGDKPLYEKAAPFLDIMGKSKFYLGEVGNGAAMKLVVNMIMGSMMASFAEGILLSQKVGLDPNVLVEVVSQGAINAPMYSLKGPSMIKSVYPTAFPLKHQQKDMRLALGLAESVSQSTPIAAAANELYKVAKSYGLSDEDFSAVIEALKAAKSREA

B1 (enzyme) — kcat (COc1ccc2c3c1O[C@H]1[C@@H](O)C=C[C@H]4[C@@H](C2)N(C)CC[C@@]341): 0.81 ± 0.03 s⁻¹
PDE4A (Homo sapiens, UniProt P27815) — kcat (Nc1ncnc2c1ncn2[C@@H]1O[C@@H]2COP(=O)(O)O[C@H]2[C@H]1O; pH 7.5, 21 °C): 3.7 s⁻¹
B2 (protein E27A) — kcat (NC[C@H](O)P(=O)(O)O; pH 7, 25 °C, NaCl 150 mM, added: O2, Fe(II) 100 µM, ascorbate 100 µM): 0.28 s⁻¹ and 0.25 s⁻¹
lovB H985A (Aspergillus terreus) — kcat (CCCC(=O)CC(=O)SCCNC(C)=O): 0.572 s⁻¹
Lxyl-p1-1 (Lentinula edodes, UniProt G8GLN9) — kcat ([H][C@]12[C@H](OC(=O)c3ccccc3)[C@]3(O)C[C@H](OC(=O)[C@H](O)[C@@H](NC(=O)c4ccccc4)c4ccccc4)C(C)=C([C@@H](O)C(=O)[C@]1(C)[C@@H](O[C@@H]1OC[C@@H](O)[C@H](O)[C@H]1O)C[C@@]1([H])OC[C@@]21OC(C)=O)C3(C)C): 2.13 ± 0.05 s⁻¹
GLYR2 (Arabidopsis thaliana, UniProt F4I907) — kcat (NC(=O)C1=CN([C@@H]2O[C@H](COP(=O)(O)OP(=O)(O)OC[C@H]3O[C@@H](n4cnc5c(N)ncnc54)[C@H](OP(=O)(O)O)[C@@H]3O)[C@@H](O)[C@H]2O)C=CC1; pH 7.6, 30 °C, cofactor varied): 12 ± 0.8 s⁻¹
B3 (enzyme N249W) — kcat (CC(C)(COP(=O)(O)OP(=O)(O)OC[C@H]1O[C@@H](n2cnc3c(N)ncnc32)[C@H](O)[C@@H]1OP(=O)(O)O)[C@@H](O)C(=O)NCCC(=O)NCCSC(=O)CC(=O)O; pH 7.4, 37 °C): 0.0035 ± 0.004 s⁻¹
B4 (protein N123D) — kcat (O=C1CCc2ccccc2O1; pH 8, NaCl 150 mM, no saturation, added: CaCl2 1 mM): > 2.4 s⁻¹
B5 (nitrilase Y142F) — kcat (Cc1cccc(C#N)c1; pH 7.5, 25 °C): 0.000142 ± 3.33e-06 s⁻¹
plcB (Listeria monocytogenes, UniProt P33378) — kcat (CCCC(=O)OC[C@H](COP(=O)([O-])OCC[N+](C)(C)C)OC(=O)CCC; pH 6, 37 °C): 8 ± 0.4 s⁻¹
B6 (enzyme) — kcat (N#C[Se]O): 2.68 ± 0.283 s⁻¹

Some of these lines once more:
lovB H985A (Aspergillus terreus) — kcat (CCCC(=O)CC(=O)SCCNC(C)=O): 0.572 s⁻¹
